Values quoted from earlier work, collected from citations in different studies.
Each numbered part shows a few of the values that one paper quotes. ± marks the error that the study gave. Values after ≈ are worked out from the molar mass of the structure shown.

Sample 1
Compound: CO/N=C(\C(=O)N[C@@H]1C(=O)N2C(C(=O)O)=C(COC(C)=O)CS[C@H]12)c1csc(N)n1
| organism | test system | MIC |
| --- | --- | --- |
| Escherichia coli | clinical isolate RKI-No_75/15 | > 16 µg/mL |
| Acinetobacter baumannii | clinical isolate RKI-No_584/16 | 16 µg/mL (≈ 35.1 µM) |
| Pseudomonas aeruginosa | clinical isolate RKI-No_321/16 | > 16 µg/mL |
| Pseudomonas aeruginosa | clinical isolate RKI-No_470/12 | > 16 µg/mL |

Further values, each from its own experiment
| SMILES | target or system | assay | test system | conditions | measurement | value |
| --- | --- | --- | --- | --- | --- | --- |
| CC1COc2ccccc2N1C(=O)C(Cl)Cl (centres unmarked) | carboxylesterase |  | mouse liver cytosol, male | 30 min, without GSH | enantiomeric fraction | 0.48 |
| Cc1nc2cccc(OCC(C)(C)C(=O)NC(C)C)c2c(N)c1C(=O)O.Cc1nc2cccc(OCC(C)(C)C(=O)NC(C)C)c2c(N)c1C(=O)O.O.O.O=S(=O)(O)O | human peripheral blood lymphocytes |  |  | with and without S9 | micronucleus test | negative |
| Fc1ccccc1Cc1nc(-c2nc(C(F)(F)F)n[nH]2)cn2ccnc12 |  | equilibrium dialysis | mouse plasma | 1 and 10 µM | plasma protein binding | 97.3% |
| CCC(CC)COC(=O)[C@H](C)N[P@](=O)(OC[C@H]1O[C@@](C#N)(c2ccc3c(N)ncnn23)[C@H](O)[C@@H]1O)Oc1ccccc1 | SARS-CoV-2 | viral replication | Caco-2 |  | EC50 | 30 ± 10 nM |

Some of these lines once more (further values, each from its own experiment):
| SMILES | target or system | assay | test system | conditions | measurement | value |
| --- | --- | --- | --- | --- | --- | --- |
| Cc1nc2cccc(OCC(C)(C)C(=O)NC(C)C)c2c(N)c1C(=O)O.Cc1nc2cccc(OCC(C)(C)C(=O)NC(C)C)c2c(N)c1C(=O)O.O.O.O=S(=O)(O)O | human peripheral blood lymphocytes |  |  | with and without S9 | micronucleus test | negative |
